Results pooled from the literature.
Each numbered part is a random draw from the data of one study; scales do not carry over between parts. Positions count from the first letter of the parent shown.

Sample 1 — technique: RNAcompete; form: RNA; matrix: in vitro; concentration: 20 nM; notes: 7-mer, probes averaged, single round; relative to: mean of 7-mers; reading: higher = stronger binding
Target: PABPC1L2, full length, GST fusion (mouse, UniProt A0ABA7IW68)
Construct (chain): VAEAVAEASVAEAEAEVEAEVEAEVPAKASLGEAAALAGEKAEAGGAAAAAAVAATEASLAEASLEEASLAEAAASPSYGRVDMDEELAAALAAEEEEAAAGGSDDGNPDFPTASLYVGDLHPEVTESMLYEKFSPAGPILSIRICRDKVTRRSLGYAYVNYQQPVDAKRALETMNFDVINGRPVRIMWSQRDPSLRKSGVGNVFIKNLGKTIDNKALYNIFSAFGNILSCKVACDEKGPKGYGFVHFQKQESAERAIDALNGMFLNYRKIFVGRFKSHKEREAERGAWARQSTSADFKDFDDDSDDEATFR
Oligonucleotide	7-mer Z-score
AGCAUGU	-0.0736
CCAAUCC	-0.431
CUCGAGU	-0.347
GUAAGUU	-0.246
UGUCGAA	-0.246
CGACAUA	0.0986
UCACGAC	-0.195
GUGGUAU	-0.177
AUGCCUC	-0.296
ACAUGGA	0.236
AAAGGCC	0.485
UUUGGAG	-0.0573
AUUUCGU	-0.416
UUGCAAG	-0.142
UACCCGG	-0.213
CCCUUCU	-0.469
CAAAGUA	0.398

Sample 2 — technique: universal PBM; form: double-stranded DNA, one strand shown; matrix: in vitro; concentration: 600 nM; reading: higher = stronger binding
Target: Sal-like protein 4, full length isoform A (SALL4, Homo sapiens, UniProt Q9UJQ4, residues 1-1053)
Chain of UniProt Q9UJQ4 (whole entry, looked up): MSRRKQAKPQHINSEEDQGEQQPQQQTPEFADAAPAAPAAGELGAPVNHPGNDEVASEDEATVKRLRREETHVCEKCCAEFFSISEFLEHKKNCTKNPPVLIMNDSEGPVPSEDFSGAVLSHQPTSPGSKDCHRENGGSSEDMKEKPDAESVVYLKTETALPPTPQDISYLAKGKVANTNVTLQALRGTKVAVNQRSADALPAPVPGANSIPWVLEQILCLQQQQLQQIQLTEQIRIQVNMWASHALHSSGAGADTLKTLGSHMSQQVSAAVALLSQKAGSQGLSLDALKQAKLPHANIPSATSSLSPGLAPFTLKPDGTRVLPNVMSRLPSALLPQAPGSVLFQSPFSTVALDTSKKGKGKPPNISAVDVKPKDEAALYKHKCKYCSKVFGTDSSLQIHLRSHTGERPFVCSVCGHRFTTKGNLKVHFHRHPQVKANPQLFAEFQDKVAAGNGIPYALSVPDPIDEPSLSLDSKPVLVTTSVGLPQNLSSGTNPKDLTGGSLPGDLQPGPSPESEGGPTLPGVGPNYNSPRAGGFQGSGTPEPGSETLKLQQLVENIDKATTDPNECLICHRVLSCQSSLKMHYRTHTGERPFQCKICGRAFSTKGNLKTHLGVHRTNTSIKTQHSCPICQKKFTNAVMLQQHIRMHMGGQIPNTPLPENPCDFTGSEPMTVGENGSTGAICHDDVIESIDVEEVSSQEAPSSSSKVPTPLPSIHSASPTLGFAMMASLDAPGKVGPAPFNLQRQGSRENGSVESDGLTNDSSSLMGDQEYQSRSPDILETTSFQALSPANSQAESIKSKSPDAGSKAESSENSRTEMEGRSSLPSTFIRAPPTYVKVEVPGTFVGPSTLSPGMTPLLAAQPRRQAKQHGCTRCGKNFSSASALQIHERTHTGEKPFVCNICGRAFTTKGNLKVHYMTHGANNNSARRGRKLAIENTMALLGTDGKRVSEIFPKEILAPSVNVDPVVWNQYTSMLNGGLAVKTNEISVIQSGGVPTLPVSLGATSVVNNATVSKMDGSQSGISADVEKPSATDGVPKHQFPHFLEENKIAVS
Notes: 8-mer, flanks averaged, mean of replicates
Oligonucleotide	E-score
AATTCCGT	0.145
AGAGGACT	-0.0229
ATACCGGG	-0.0719
ATAGACTA	0.222
ATGTAACG	0.231
ACGACTCC	-0.161
CGGAAACA	0.0205
GGTCGCTA	-0.178
CATCAGCC	-0.158
CGCGGATA	0.034
CAGCGTAG	-0.122
CCGATATA	0.254
ATCAAGTC	0.159
ATTATCTA	0.309
ATAGATCA	0.243
CCGGTATC	-0.182
TAGGCGGA	0.078
CAACACGC	-0.125

Sample 3 — target: CCND2, cyclin fold, Cln2 fusion (human); technique: yeast growth competition, sequencing; matrix: yeast; notes: weak parent motif; relative to: not given; reading: higher = stronger binding
Parent: ANKRD17 docking peptide (human); PSVRRQLFVTVVK
Change	normalised enrichment score
PSVRRQLAVTVVK [F8A]	0.425
PSVRRQLFATVVK [V9A]	0.145
PSVRRQLFVTVVA [K13A]	-0.223
PSVRRQLFVTAVK [V11A]	0.576
PSVRKQLFVTVVK [R5K]	-0.498
PSVARQLFVTVVK [R4A]	0.205
PSVRAQAFVTVVK [R5A L7A]	-0.038
PSVRRQLFVTVAK [V12A]	0.262
PSVRRALFVTVVK [Q6A]	-0.276
PSVRRQLLVTVVK [F8L]	-0.22

Sample 4 — technique: protein-binding microarray; form: double-stranded DNA, one strand shown; matrix: in vitro; concentration: 940 nM top; notes: 60-bp whole probe; together with: salmon DNA 0.4 mg/ml; relative to: random background probes; reading: higher = stronger binding; all sequences stand within: GCCTAGCAC … GTCTTGATTCGCTTGACGCTGCTG
Target: Interferon regulatory factor 5, full length, phosphomimetic (IRF5, Homo sapiens, UniProt Q13568-2, residues 1-514, S451D/S453D/S456D/S462D)
Oligonucleotide	fitted relative affinity
GACGCACTGGGACTGGGGACGTGCTAG	-0.491 z-score
CTAGATTTCGGGTTTCGATTAGTGCTA	5.61 z-score
TTAGAACTGGTGACTGGATTAGTGCTA	-0.628 z-score
CTGCCTGTCCATTCCTTCCAGTGCTAG	0.67 z-score
CTAGGACTGGACTATCGGTTAGTGCTA	-0.00817 z-score
CTACTTCTCTTTTTGCTTTCGTGCTAG	2.56 z-score
TTAGAAGTGAGTCTCGATTAGTGCTAG	2.84 z-score
TTAGGTTCCGGTTTTGGTTAGTGCTAG	4.08 z-score
GACGGTCTCATTATCCTGACGTGCTAG	1.68 z-score
GACGGTTTCGGTTCCCGGACGTGCTAG	15.6 z-score
GACGGACTGGAGTTTCGGGACGTGCTA	1.84 z-score
GACGGACTAGGGTTTCGGGACGTGCTA	1.07 z-score
GACGGAATCCTTCTCCTGACGTGCTAG	-0.345 z-score
TTAGGACTGGGTTTCTGTTAGTGCTAG	2.04 z-score
GCTAGTATGTTCCTTATTTAAGTGCTA	0.647 z-score
TCATCTCTGCTCTTTTCAACTGTGCTA	1.58 z-score
TTAGATTTCATTTTCGATTAGTGCTAG	2.61 z-score
TCAGGTAGCCTTATCCCTAAGTGCTAG	-0.308 z-score
TCAGGTTTCGGGTATCGGTTAGTGCTA	10.3 z-score
GTATATACACTTATGACTTTGTGCTAG	0.613 z-score
GACGATATCGTGTATCGAGACGTGCTA	0.158 z-score
TCACTTTCCCCTTCCTAACTGTGCTAG	2.2 z-score
TTAGGTTTCCGTTCCCTTTAGTGCTAG	2.9 z-score
TTAGGTCTCCTTATCCTTTGGTGCTAG	0.448 z-score
TTAGGTTTCCTCATCCTTTAGTGCTAG	1.41 z-score

Sample 5 — technique: protein binding microarray; form: double-stranded DNA, one strand shown; matrix: in vitro; concentration: not given; relative to: not given; reading: higher = stronger binding
Target: Histone acetyltransferase KAT6A, both winged helices, GST fusion (KAT6A, Homo sapiens, UniProt Q92794, residues 1-181)
Notes: 8-mer, flanks averaged, mean of 2 arrays, mostly near background
Construct (chain): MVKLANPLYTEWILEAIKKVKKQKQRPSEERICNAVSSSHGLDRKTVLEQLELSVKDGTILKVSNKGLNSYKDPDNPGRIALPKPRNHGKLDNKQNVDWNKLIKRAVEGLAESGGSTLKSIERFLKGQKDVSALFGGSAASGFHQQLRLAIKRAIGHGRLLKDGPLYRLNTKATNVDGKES
Oligonucleotide	E-score
GAACTAAA	-0.126
GAGTACAC	0.0115
AATGTGAG	-0.207
GACCGAAC	0.0183
CCGTTGTC	0.14
CCTTTGCA	-0.0906
CTGGGCAA	-0.252
TTACTAAA	-0.0887
CCTTCAAC	-0.231
ATACTATC	-0.023
ACAAGGGG	-0.216
AGACCGAC	0.145
CCCGTTTC	0.181
ATGGTTTC	-0.0291
GGCCGGAA	0.204
ACAAAACT	-0.263
GGACTGAC	0.00766
ATGATTGC	0.0153
CAAAGTAC	-0.166
GACATCAA	-0.1
GGCGCATA	0.25
CGACGAAG	0.0269
CTCATATA	-0.0326
ACGTCAGT	-0.119
CCCACGGC	0.229

Sample 6 — technique: RNA Bind-n-Seq; form: RNA; matrix: in vitro; concentration: 365 nM; relative to: no-protein control; reading: higher = stronger binding
Target: RNA binding protein fox-1 homolog 2, RRM domain, GST-SBP tag (RBFOX2, Homo sapiens, UniProt O43251-10, residues 100-194)
Notes: natural RNA segment, single round, ends assumed
Residues (chain): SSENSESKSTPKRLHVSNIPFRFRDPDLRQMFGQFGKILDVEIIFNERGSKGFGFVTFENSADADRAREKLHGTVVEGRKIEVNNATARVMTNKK
Oligonucleotide	RBNS enrichment (R)
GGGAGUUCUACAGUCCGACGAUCUCUCUUUAGGUAAGAUUUGGUUUGUUUGUGUCUUGUUUGUUUCCCUCUCCAAAUUCUUCCUUCUUUGUGCACCCUGCCUUUCUUCCCUUCCAUCCUUUCUUUUUUGUAUAUGGAAUUCUCGGGUGCCAA	24.9
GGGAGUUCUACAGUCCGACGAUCGUAAGUAGCUUUCUGACUACAUUAUUUUCUGGUCACUUUUAAAGAAAGUUUACAACCUGUUCUGAAACUAUUUGUCUUUUCACUGGUUGUAAGUGUACCCCAAUCUCAGGUGGAAUUCUCGGGUGCCAA	0.312
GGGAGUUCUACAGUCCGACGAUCGGUGCGGGAAGAAAUGGCCUUUAAUUACUGAUUGUAUUUGGUACAUAUUGUGUGAUACUUGAAGAGAUAAAAGGGACUUACCAGCCCUUAAUUGAAAUCUAAGCUUUUUAUGGAAUUCUCGGGUGCCAA	0.433
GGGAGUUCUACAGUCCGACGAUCCUACCCUCACCCUUCUGGCCAGGAUCCCGCAGGGCAACAGCCCCAUCUGCUUGGCUGACCCCACACCCAGGACCACUGUCCGGCUCUAACACAGCUAUUAAGUGCUACCUUGGAAUUCUCGGGUGCCAA	0.232
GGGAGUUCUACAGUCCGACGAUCCUCAGCAGUCCUUCAGGACUUCUGGUUCCUUCCGCCACCCUUCUCAAGAUUCUAGAAAUCAAAGGAGCCAUACAAUCCGGCAGGAGGCAGUGACUGUGGUCUCAGUGCUGUGGAAUUCUCGGGUGCCAA	0.464
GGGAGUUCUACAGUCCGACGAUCCAUUACACUCCCCCCUACCUUUCGCCCCCUCCUCACCAUUAUUGAGACCACCAAAGAUUCCCUGUCCAUGACCUCUGAGGCGGGGUUACCUUGCUUGUCGGACCAAGGCAUGGAAUUCUCGGGUGCCAA	0.466
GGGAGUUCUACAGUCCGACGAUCUGGUAGCAGUUUGAUGUGCUGGGUUCUGUCAUCUGUUCUGAUGAGAAGAUUUUUAUCUUCUGCAGUGCUGAUGGCCGGGAGGAACCAUUCAAAGCCACUGGUUAUUUUGUUGGAAUUCUCGGGUGCCAA	0.72
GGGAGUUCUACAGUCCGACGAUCAGAGGCCCACAGUGGAGGCUUACCAAAGGUUGCAAUGAGGAAGAGGCCUCUCCCUCACUGUCAGCACCAGCUGGUAAAGGUGACUGUGCAGAUGUGCAUUUUCCUUUUGGUGGAAUUCUCGGGUGCCAA	0.428
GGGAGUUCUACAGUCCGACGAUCUAAAUGCUAUAUCUGGUAUCCAGAGGCUGGCUGUAAAAAGUUCCUUGGGGUCACUCUAUCUCACAUUUUUUUUGGUUAGCAUUUUAAAAAUGCAAAGCCACAUACUUUGAUGGAAUUCUCGGGUGCCAA	0.253
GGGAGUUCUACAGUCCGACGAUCUUCUUUUGAGCUUAGUCAGCUGUACCUUUUCAAUUAGUUCUUUUUCAACCAAUGUGUCACUAAAAGUUCCAUCAAAGCUUUAUCAGUUCAAGUUUCUUGCUUUUCAUAAUUGGAAUUCUCGGGUGCCAA	0.824
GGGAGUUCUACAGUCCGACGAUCCUCUGUUUAAUGAUCGGCCUUUCACCUCUUCACUUAUCCUUAGUCCCAGUAGCCAGGAUACCUGAUGGCCACGUGUGCCUUGGCCACGGGAGGCUGCUGAGAUUGGCCACUGGAAUUCUCGGGUGCCAA	0.333
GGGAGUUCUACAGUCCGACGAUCGAAGUGAUCAGUAUUAAGUGGGUGAUGGCUCUUUCAUCUUCCUUAUCCCUAAAGAUACUUCCAACAUAUUGUUAGAGUAAGUAUUAAAAGAAAAAGUAGGUUUGCUGAAAUGGAAUUCUCGGGUGCCAA	0.386

A few entries again (sample 5):
Oligonucleotide	E-score
GAACTAAA	-0.126
TTACTAAA	-0.0887
CCCACGGC	0.229
CCTTTGCA	-0.0906
CCTTCAAC	-0.231
CCCGTTTC	0.181
ATACTATC	-0.023
CTGGGCAA	-0.252
GACCGAAC	0.0183
ACGTCAGT	-0.119
ACAAAACT	-0.263
